Published values from different studies.
Every numbered part comes from another study and shows a few of its results, in no order.
UniProt Q9H3N8, sequence (whole entry, looked up): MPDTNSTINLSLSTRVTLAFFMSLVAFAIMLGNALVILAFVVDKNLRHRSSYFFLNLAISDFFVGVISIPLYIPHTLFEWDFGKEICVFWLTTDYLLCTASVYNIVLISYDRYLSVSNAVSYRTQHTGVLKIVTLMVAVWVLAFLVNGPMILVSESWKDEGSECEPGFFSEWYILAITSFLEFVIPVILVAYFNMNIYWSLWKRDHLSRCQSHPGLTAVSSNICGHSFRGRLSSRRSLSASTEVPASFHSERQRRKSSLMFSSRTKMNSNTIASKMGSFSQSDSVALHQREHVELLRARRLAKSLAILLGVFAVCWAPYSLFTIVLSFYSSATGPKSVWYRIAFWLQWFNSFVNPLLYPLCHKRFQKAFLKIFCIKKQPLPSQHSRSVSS
UniProt P25100, sequence (whole entry, looked up): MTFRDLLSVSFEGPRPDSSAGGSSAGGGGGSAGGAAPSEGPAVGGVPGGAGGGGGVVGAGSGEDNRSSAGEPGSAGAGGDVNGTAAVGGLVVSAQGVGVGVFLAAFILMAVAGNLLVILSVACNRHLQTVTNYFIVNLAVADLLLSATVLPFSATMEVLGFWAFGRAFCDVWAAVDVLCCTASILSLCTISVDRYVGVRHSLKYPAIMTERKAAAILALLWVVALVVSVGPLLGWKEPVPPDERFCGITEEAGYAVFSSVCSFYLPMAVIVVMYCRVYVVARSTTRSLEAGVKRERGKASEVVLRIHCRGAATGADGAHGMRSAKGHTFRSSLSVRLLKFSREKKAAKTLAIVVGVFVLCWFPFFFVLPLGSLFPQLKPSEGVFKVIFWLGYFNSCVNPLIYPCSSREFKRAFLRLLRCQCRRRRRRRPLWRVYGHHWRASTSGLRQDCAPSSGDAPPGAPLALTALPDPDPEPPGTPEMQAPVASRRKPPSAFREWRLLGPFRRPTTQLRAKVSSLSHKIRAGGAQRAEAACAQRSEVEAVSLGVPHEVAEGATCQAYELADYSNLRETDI
UniProt Q5BJF2, sequence (whole entry, looked up): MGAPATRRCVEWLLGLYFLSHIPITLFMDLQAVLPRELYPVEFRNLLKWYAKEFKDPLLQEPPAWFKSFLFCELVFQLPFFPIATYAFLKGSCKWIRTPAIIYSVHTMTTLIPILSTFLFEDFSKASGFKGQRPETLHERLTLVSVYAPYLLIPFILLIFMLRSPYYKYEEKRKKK
UniProt P08913, sequence (whole entry, looked up): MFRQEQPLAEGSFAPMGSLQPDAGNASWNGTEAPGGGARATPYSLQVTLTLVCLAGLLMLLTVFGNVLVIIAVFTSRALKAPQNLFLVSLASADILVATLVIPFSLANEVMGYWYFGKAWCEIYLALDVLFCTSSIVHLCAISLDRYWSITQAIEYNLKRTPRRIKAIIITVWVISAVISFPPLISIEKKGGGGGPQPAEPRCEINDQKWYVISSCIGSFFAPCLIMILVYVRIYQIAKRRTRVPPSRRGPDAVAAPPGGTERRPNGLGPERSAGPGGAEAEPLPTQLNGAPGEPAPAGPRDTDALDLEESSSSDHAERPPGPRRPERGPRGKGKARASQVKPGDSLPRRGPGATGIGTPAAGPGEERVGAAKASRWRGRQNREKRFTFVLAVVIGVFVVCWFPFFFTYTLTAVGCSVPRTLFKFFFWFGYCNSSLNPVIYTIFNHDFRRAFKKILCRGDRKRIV

Set 1
Target: Phosphate system positive regulatory protein PHO4, full length, GST-tagged (PHO4, Saccharomyces cerevisiae, UniProt P07270, residues 1-312)
Method: competition protein-binding microarray
Molecule type: double-stranded DNA, one strand shown
Matrix: in vitro
Tested at: 2 µM
Notes: whole 60-bp probe, lowest competitor level
Together with: Cbf1 competitor, 0.05 µM
Direction: higher = stronger binding
Shared flanks, not repeated: … GTCTTGATTCGCTTGACGCTGCTG
Residues (chain): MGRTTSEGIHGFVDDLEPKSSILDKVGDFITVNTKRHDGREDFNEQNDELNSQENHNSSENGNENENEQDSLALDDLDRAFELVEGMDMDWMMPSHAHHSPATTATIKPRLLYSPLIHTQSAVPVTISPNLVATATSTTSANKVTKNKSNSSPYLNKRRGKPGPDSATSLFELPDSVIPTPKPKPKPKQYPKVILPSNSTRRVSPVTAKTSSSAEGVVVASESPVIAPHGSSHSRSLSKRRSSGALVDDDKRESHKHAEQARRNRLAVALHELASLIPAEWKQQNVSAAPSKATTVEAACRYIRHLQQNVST
For `TGCGCAACAACTTTTCACGTGTTATTATGTCTAGAA`, the fluorescence intensity was 14700 a.u.
`GAACCGGTAAGCCTACACGTCTAGGTGCATTCAACG` gave a fluorescence intensity of 4220 a.u.
`AAATTACTAAGTTTTCACGTGCCATACCCCGTATGA` gave a fluorescence intensity of 15700 a.u.
With `CGCCCAAGGGACAATCACATGCAGAGAAGTTTACGA` the fluorescence intensity was 8220 a.u.
The fluorescence intensity of `AAAGCGGTAATTTGTCACTTTACTTCACATATCTAT` is reported as 2970 a.u.
`CATACCCAACCTTGTCACCATACTTAAGATATTTGT` has a fluorescence intensity of 4410 a.u.
The fluorescence intensity of `CTTTCCCGATCTTTTCACGTGCCGTTAGCACATTTG` is reported as 14300 a.u.
`GACACATCGCTAGAAAAATTGGCATTACTAGAAAGC` has a fluorescence intensity of 3160 a.u.

Set 2
SMILES: O=C(c1ccc(F)cc1)N1CC(COc2ccc(Br)cc2)(C(=O)O)C1
Read-out: cell-free assay
Tested at: 10 µM
For TMEM97 (Homo sapiens, UniProt Q5BJF2): inhibition read -12.2%.
For ADRA2A (Homo sapiens, UniProt P08913): inhibition read 14.2%.
It gave -26.2% for inhibition (HRH4 (Homo sapiens, UniProt Q9H3N8)).
The inhibition was -15% (ADRB2 (Homo sapiens, UniProt P07550)).
The inhibition was 5% (ADRA1D (Homo sapiens, UniProt P25100)).

Set 3
Target: cAMP-dependent protein kinase catalytic subunit PRKX (PRKX, Homo sapiens, UniProt P51817)
Read-out: enzyme activity
Mode: inhibitor
Tested at: 0.5 µM
Baseline: control
Construct (P51817 1-358): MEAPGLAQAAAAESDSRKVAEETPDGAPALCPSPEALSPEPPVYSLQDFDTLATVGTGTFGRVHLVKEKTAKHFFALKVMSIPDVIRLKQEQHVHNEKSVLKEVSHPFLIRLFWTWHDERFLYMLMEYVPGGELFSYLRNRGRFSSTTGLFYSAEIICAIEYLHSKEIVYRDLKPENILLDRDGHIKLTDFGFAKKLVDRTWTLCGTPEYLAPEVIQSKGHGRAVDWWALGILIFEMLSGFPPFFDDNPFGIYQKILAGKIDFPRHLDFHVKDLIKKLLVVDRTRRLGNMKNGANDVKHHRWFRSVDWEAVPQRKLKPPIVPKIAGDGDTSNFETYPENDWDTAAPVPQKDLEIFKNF
`C#Cc1cccc(Nc2ncnc3cc(OCCOC)c(OCCOC)cc23)c1` gave a remaining activity of 111%.
`N#CC(C#N)=C(N)/C(C#N)=C/c1ccc(O)cc1` gave a remaining activity of 93.7%.
For `NCCNc1ncc(C(N)=O)c(Nc2cccc(C(F)(F)F)c2)n1`, the remaining activity was 90.5%.
`Nc1[nH]nc2nc3ccccc3nc12` has a remaining activity of 102%.
`Cc1nc(-c2ccccc2)c(-c2ccncc2)o1` gave a remaining activity of 101%.
`O=C(Nc1cccc(Nc2cc(Nc3cccc(C(F)(F)F)c3)ncn2)c1)C1CC1` gave a remaining activity of 107%.
The remaining activity of `CN(C)c1ccc(C=C2C(=O)Nc3ccccc32)cc1` is reported as 104%.
`O=C(O)c1ccc2c3c1cccc3c(=O)n1c3ccccc3nc21` has a remaining activity of 93.7%.
The remaining activity of `Cn1c2ccccc2c2c3c(c4c5ccccc5n(CCC#N)c4c21)CNC3=O` is reported as 60.1%.
For `Cc1cccc(-c2[nH]c(C(C)(C)C)nc2-c2ccc3c(c2)OCO3)n1`, the remaining activity was 95%.
`O=c1c2ccccc2[nH]c(=S)n1CCN1CCC(=C(c2ccc(F)cc2)c2ccc(F)cc2)CC1` has a remaining activity of 106%.
`O=C1NC(=O)C(c2cn(CCCn3ccnc3)c3ccccc23)=C1Nc1ccccc1` gave a remaining activity of 95.5%.
`CO[C@H]1C[C@@H]2CC[C@@H](C)[C@@](O)(O2)C(=O)C(=O)N2CCCC[C@H]2C(=O)O[C@H]([C@H](C)C[C@@H]2CC[C@@H](O)[C@H](OC)C2)CC(=O)[C@H](C)/C=C(\C)[C@@H](O)[C@@H](OC)C(=O)[C@H](C)C[C@H](C)/C=C/C=C/C=C/1C` has a remaining activity of 95.6%.
`O=C(CCCc1ccc(-c2ccccc2F)cc1)Nc1ccc(O)cc1` gave a remaining activity of 106%.

Set 4
Target: Interferon regulatory factor 3, full length, phosphomimetic (IRF3, Homo sapiens, UniProt Q14653, residues 1-427, S386D/S396D/S398D/S402D/T404D/S405D)
Method: protein-binding microarray
Molecule type: double-stranded DNA, one strand shown
Matrix: in vitro
Tested at: 2540 nM top
Notes: 60-bp whole probe
Together with: salmon DNA 0.4 mg/ml
Baseline: random background probes
Direction: higher = stronger binding
Shared flanks, not repeated: GCCTAGCAC … GTCTTGATTCGCTTGACGCTGCTG
Construct (chain): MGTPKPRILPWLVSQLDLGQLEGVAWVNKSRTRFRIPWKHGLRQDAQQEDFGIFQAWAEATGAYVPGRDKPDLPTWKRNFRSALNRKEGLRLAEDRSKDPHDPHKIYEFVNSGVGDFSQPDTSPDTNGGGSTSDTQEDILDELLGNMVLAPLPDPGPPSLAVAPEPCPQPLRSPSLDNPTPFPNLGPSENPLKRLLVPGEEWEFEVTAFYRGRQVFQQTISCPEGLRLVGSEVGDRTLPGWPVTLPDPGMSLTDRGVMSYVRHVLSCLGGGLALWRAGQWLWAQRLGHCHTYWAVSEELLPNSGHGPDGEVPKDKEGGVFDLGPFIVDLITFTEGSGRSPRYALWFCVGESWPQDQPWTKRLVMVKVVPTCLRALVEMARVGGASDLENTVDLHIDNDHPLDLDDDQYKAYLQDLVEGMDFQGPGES
`CACGGACTGGGGTATCGGGACGTGCTA` — result for “fitted relative affinity”: -0.574 z-score.
`TCACTTTTTTTTTTTTTACTGTGCTAG`: “fitted relative affinity” 1.39 z-score.
Under “fitted relative affinity”, `CTCTTTGTTTCACTTCCTGGTGTGCTA` is recorded as 4.23 z-score.
Under “fitted relative affinity”, `TTAGGACTTGGGTTTCGGTTAGTGCTA` is recorded as 2.57 z-score.
`TATCCTTCCCCTCTAGGTTCGTGCTAG`: “fitted relative affinity” 2.91 z-score.
`GACGCTCTCAGTATCGAGACGTGCTAG` — result for “fitted relative affinity”: 0.482 z-score.
`GAAAGAATCACAACTAGGAAGGTGCTA`: “fitted relative affinity” 0.802 z-score.
`GACGGACTGCTGTTCCTGACGTGCTAG`: “fitted relative affinity” -0.196 z-score.

A few entries again (set 1):
For `TGCGCAACAACTTTTCACGTGTTATTATGTCTAGAA`, the fluorescence intensity was 14700 a.u.
`GAACCGGTAAGCCTACACGTCTAGGTGCATTCAACG` gave a fluorescence intensity of 4220 a.u.
